Assay results collected from several papers.
Protocols differ between the studies behind these lines. ± gives the spread as reported.
B1: UGT1A9 (Homo sapiens, UniProt O60656); chain GKLLVVPMDGSHWFTMRSVVEKLILRGHEVVVVMPEVSWQLGRSLNCTVKTYSTSYTLEDLDREFKAFAHAQWKAQVRSIYSLLMGSYNDIFDLFFSNCRSLFKDKKLVEYLKESSFDAVFLDPFDNCGLIVAKYFSLPSVVFARGILCHYLEEGAQCPAPLSYVPRILLGFSDAMTFKERVRNHIMHLEEHLLCHRFFKNALEIASEILQTPVTEYDLYSHTSIWLLRTDFVLDYPKPVMPNMIFIGGINCHQGKPLPMEFEAYINASGEHGIVVFSLGSMVSEIPEKKAMAIADALGKIPQTVLWRYTGTRPSNLANNTILVKWLPQNDLLGHPMTRAFITHAGSHGVYESICNGVPMVMMPLFGDQMDNAKRMETKGAGVTLNVLEMTSEDLENALKAVINDKSYKENIMRLSSLHKDRPVEPLDLAVFWVEFVMRHKGAPHLRPAAHDLTWYQYHSLDVIGFLLAVVLTVAFITFKCCAYGYRKCLGKKGRVKKAHKSKTH

SIYNFEKL
TNF-alpha+ cells (OT-I CD8+ T cells; peptide; concentration not given, primed 5 d, OVA257 100 ng/mL restimulation, together with: 20 ng/mL TGF-beta1 from day 2): 49.7%

C[C@H]1c2cccc(O)c2C(=O)C2=C(O)[C@]3(O)C(=O)C(C(N)=O)=C(O)[C@@H](N(C)C)[C@@H]3[C@@H](O)[C@@H]21
FIC index (Staphylococcus aureus; checkerboard; ATCC 25923; together with: magainin II): 1

IINFEKE
K1/2 of L-AMC (ERAP1 human L734R; activator; peptide; 100 µM, pH 8.0, 27 °C, together with: L-AMC substrate): 0.3 ± 0.07 mM

O=CCc1ccccc1
peptide depletion (cysteine peptide Ac-RFAACAA-COOH; DPRA RapidFire-MS/MS; 24 h, pH 7.5, together with: 5.0 µM cysteine peptide): inactive

O=C1NC2(CCCCC2)c2[nH]c(=S)nc(-c3ccccc3)c21
inhibition (human erythrocytes; hypotonicity-induced hemolysis; 600 µg/mL, 1 h): 82.6%

Cc1c(C)c2c(c(C)c1O)CCC(C)(C(=O)NN=C1C(=O)N(C)c3ccccc31)O2 (centres unmarked)
minimal effective dose (seizure protection; male CF-1 mice; intraperitoneal, 4 h, together with: pentylenetetrazole 60 mg/kg subcutaneous): 100 mg/kg

CCCCCC(C=O)=Cc1ccccc1
IC50 (cysteine peptide Ac-RFAACAA-COOH; peptide depletion, DPRA RapidFire-MS/MS; 24 h, pH 7.5, room temperature, together with: 5.0 µM cysteine peptide): 292 µM

SIIVFEKL
IL-2+ cells (OT-I CD8+ T cells; peptide; concentration not given, primed 5 d, OVA257 100 ng/mL restimulation, together with: 20 ng/mL TGF-beta1 from day 2): 50%

CC(C)(N)C(=O)O
Km (Ehrlich ascites cells, mouse; system A uptake; extrapolated to infinite Na+): 1100 µM

C[C@@H](O)[C@H]1C(=O)N2C(C(=O)O)=C(S[C@@H]3CN[C@H](C(=O)N(C)C)C3)[C@H](C)[C@H]12
FIC index (Staphylococcus aureus; checkerboard broth microdilution; clinical isolate 21-99; together with: magainin II): 0.187

COc1c(Cl)c(C)c(C=O)c(O)c1C/C=C(C)/C=C/[C@@]1(C)[C@H](C)CCC(=O)[C@@H]1C
IC50 (Wickerhamomyces anomalus; O2 uptake, inhibitor; mitochondria; together with: glycerol 3-phosphate 20 mM): 5.8 µM

CN(C)CCCN
IC50 (cysteine peptide Ac-RFAACAA-COOH; peptide depletion, DPRA RapidFire-MS/MS; 24 h, pH 7.5, room temperature, together with: 5.0 µM cysteine peptide): inactive

CNCCCN1c2ccccc2CCc2ccccc21
[18F]-dopamine retention (mouse pheochromocytoma MPC cells; 1 µM, 30 min preincubation, together with: 0.024 MBq/mL [18F]-dopamine, 120 min retention phase; baseline: control): 40.1%

Cn1sc(Cl)cc1=O
maximal peptide depletion (cysteine peptide Ac-RFAACAA-COOH; DPRA RapidFire-MS/MS; 24 h, pH 7.5, together with: 5.0 µM cysteine peptide): -122%

Cc1cc(-c2ccccc2)c2c(n1)C1(CCCCC1)NC2=O
inhibition (human erythrocytes; hypotonicity-induced hemolysis; 1000 µg/mL, 1 h): 90.1%

Cc1c(C)c2c(c(C)c1OCc1ccccc1)CCC(C)(C(=O)NN=C1C(=O)N(C)c3ccc(Cl)cc31)O2 (centres unmarked)
minimal effective dose (seizure protection; male CF-1 mice; intraperitoneal, 0.5 h, together with: pentylenetetrazole 60 mg/kg subcutaneous): 100 mg/kg

CCCCCCCCCCCCCCCC(=O)Cl
peptide depletion (cysteine peptide Ac-RFAACAA-COOH; DPRA RapidFire-MS/MS; 24 h, pH 7.5, together with: 5.0 µM cysteine peptide): inactive

B1 (UGT1A9)
Vmax (Oc1ccc(/C=C/c2cc(O)cc(O)c2)cc1; steady-state kinetics; pH 7.4, 37 °C): 0.000196 µmol/min/mg

CCOC(=O)/C=C\C(=O)OCC
maximal peptide depletion (cysteine peptide Ac-RFAACAA-COOH; DPRA RapidFire-MS/MS; 24 h, pH 7.5, together with: 5.0 µM cysteine peptide): -108%

IINFEKL
K1/2 of L-AMC (ERAP1 human L734R; activator; peptide; 100 µM, pH 8.0, 27 °C, together with: L-AMC substrate): 0.33 ± 0.09 mM

O=C1NC2(CCCCC2)c2nc3c(c(-c4ccccc4)c21)CCCC3
inhibition (human erythrocytes; hypotonicity-induced hemolysis; 1000 µg/mL, 1 h): 96%

Cc1c(C)c2c(c(C)c1O)CCC(C)(C(=O)NN=C1C(=O)Nc3cc(Cl)ccc31)O2 (centres unmarked)
minimal effective dose (seizure protection; male CF-1 mice; intraperitoneal, 0.5 h, together with: maximal electroshock): 100 mg/kg

O=C1OC(=O)c2ccccc21
IC50 (cysteine peptide Ac-RFAACAA-COOH; peptide depletion, DPRA RapidFire-MS/MS; 24 h, pH 7.5, room temperature, together with: 5.0 µM cysteine peptide): inactive

CC[C@H]1OC(=O)[C@H](C)[C@@H](O[C@H]2C[C@@](C)(OC)[C@@H](O)[C@H](C)O2)[C@H](C)[C@@H](O[C@@H]2O[C@H](C)C[C@H](N(C)C)[C@H]2O)[C@](C)(OC)C[C@@H](C)C(=O)[C@H](C)[C@@H](O)[C@]1(C)O
FIC index (Staphylococcus aureus; checkerboard broth microdilution; methicillin-susceptible isolate 56-96; together with: magainin II): 1

Nc1cccc(O)c1
maximal peptide depletion (cysteine peptide Ac-RFAACAA-COOH; DPRA RapidFire-MS/MS; 24 h, pH 7.5, together with: 5.0 µM cysteine peptide): -26.4%

COc1c(C)c(C)c2c(c1C)CCC(C)(C(=O)NN=C1C(=O)Nc3cc(Cl)ccc31)O2 (centres unmarked)
minimal effective dose (seizure protection; male CF-1 mice; intraperitoneal, 0.5 h, together with: pentylenetetrazole 60 mg/kg subcutaneous): 100 mg/kg

For quick reference, copied from above:
O=CCc1ccccc1
peptide depletion (cysteine peptide Ac-RFAACAA-COOH; DPRA RapidFire-MS/MS; 24 h, pH 7.5, together with: 5.0 µM cysteine peptide): inactive

IINFEKE
K1/2 of L-AMC (ERAP1 human L734R; activator; peptide; 100 µM, pH 8.0, 27 °C, together with: L-AMC substrate): 0.3 ± 0.07 mM

C[C@H]1c2cccc(O)c2C(=O)C2=C(O)[C@]3(O)C(=O)C(C(N)=O)=C(O)[C@@H](N(C)C)[C@@H]3[C@@H](O)[C@@H]21
FIC index (Staphylococcus aureus; checkerboard; ATCC 25923; together with: magainin II): 1

SIYNFEKL
TNF-alpha+ cells (OT-I CD8+ T cells; peptide; concentration not given, primed 5 d, OVA257 100 ng/mL restimulation, together with: 20 ng/mL TGF-beta1 from day 2): 49.7%
